Measurements of several laboratories.
Every numbered part comes from another study and shows a few of its results, in no order. Values joined by “and” are separate records of one study, mostly repeats; a detail may differ. Converted amounts (≈) assume the structure as drawn.

Sample 1
SMILES: CCCCC[C@@H]1CC(=O)N[C@@H](C(C)C)C(=O)N[C@H](CCCNC(=N)N)C(=O)N[C@@H](CO)C(=O)NCC(=O)N(C)[C@H](Cc2ccccc2)C(=O)N[C@@H](CC(C)C)C(=O)N[C@H](CCCNC(=N)N)C(=O)N[C@@H](CC(N)=O)C(=O)N[C@H](C(C)C)C(=O)N[C@H](Cc2c[nH]c3ccccc23)C(=O)NCCCC(=O)O1
Organism: Staphylococcus aureus
Strain: USA300
added | MIC
ubiquinone 0 µg/mL | 4 µg/mL (≈ 2.75 µM)
ubiquinone 4 µg/mL | 4 µg/mL (≈ 2.75 µM)
menaquinone 1 µg/mL | 16 µg/mL (≈ 11 µM)
menaquinone 32 µg/mL | > 64 µg/mL
menaquinone 0.0625 µg/mL | 4 µg/mL (≈ 2.75 µM)
menaquinone 0.125 µg/mL | 8 µg/mL (≈ 5.49 µM)
menaquinone 16 µg/mL | > 64 µg/mL
menaquinone 2 µg/mL | 16 µg/mL (≈ 11 µM)

Sample 2
SMILES: Cn1cc(-c2cccc(CN3CCC4(CC3)COc3c4ccc4c3CN([C@H]3CCC(=O)NC3=O)C4=O)c2)cn1
host | matrix | route | dose | notes | half-life
rat | plasma | intravenous | 1.02 mg/kg |  | 1.94 h
cynomolgus monkey | plasma | intravenous | 1 mg/kg |  | 8.85 h
rat |  | intravenous | 1 mg/kg |  | 2.03 h and 1.96 h and 1.82 h
cynomolgus monkey |  | intravenous | 1 mg/kg |  | 9.35 h and 7.96 h and 9.24 h
 | rat plasma |  |  |  | 10.8 h
rat |  | oral | 3 mg/kg |  | 1.96 h and 3.24 h and 2.69 h
 | mouse liver microsomes |  |  |  | > 2 h
 | human liver microsomes |  |  |  | > 2 h
cynomolgus monkey |  | oral | 3 mg/kg |  | 11 h and 10.3 h and 8.74 h
rat | plasma | oral | 2.98 mg/kg | group mean | 2.63 h

Sample 3
Structure (SMILES): C#CCN1C(=O)C(O)(C(=O)O)Oc2cc(F)ccc21 (stereo not drawn)
Organism: Arabidopsis thaliana
Strain: Col-0
Notes: seed germination, single repetition
concentration | hypocotyl length
25 µg/mL | 1.47 cm and 1.43 cm and 1.4 cm and 1.41 cm
12.5 µg/mL | 1.71 cm and 1.66 cm and 1.68 cm and 1.62 cm and 1.82 cm
50 µg/mL | 0.94 cm and 0.92 cm and 0.88 cm and 0.98 cm
3.125 µg/mL | 2.14 cm and 2.15 cm and 2.17 cm and 2.25 cm
6.25 µg/mL | 1.89 cm and 1.93 cm and 1.9 cm and 1.98 cm and 1.95 cm

Sample 4
SMILES: N=C(N)NCCCCCCN1CCC23c4c5ccc(O)c4OC2c2nc4ccccc4cc2CC3(O)C1C5 (stereo not drawn)
Method: modified Racine scale
Host: C57BL/6J mice, male
Route: intracerebroventricular
Dose: 100 nmol
Direction: direction not given
time | seizure score
35 min | 0
50 min | 0
70 min | 0
10 min | 0
45 min | 0
60 min | 0
80 min | 0

Repeated from above (sample 4):
time | seizure score
50 min | 0
70 min | 0
10 min | 0
